Measurements collected from several papers.
Numbered parts are unrelated; each lists some results of a single study.
UniProt Q12866, sequence (whole entry, looked up): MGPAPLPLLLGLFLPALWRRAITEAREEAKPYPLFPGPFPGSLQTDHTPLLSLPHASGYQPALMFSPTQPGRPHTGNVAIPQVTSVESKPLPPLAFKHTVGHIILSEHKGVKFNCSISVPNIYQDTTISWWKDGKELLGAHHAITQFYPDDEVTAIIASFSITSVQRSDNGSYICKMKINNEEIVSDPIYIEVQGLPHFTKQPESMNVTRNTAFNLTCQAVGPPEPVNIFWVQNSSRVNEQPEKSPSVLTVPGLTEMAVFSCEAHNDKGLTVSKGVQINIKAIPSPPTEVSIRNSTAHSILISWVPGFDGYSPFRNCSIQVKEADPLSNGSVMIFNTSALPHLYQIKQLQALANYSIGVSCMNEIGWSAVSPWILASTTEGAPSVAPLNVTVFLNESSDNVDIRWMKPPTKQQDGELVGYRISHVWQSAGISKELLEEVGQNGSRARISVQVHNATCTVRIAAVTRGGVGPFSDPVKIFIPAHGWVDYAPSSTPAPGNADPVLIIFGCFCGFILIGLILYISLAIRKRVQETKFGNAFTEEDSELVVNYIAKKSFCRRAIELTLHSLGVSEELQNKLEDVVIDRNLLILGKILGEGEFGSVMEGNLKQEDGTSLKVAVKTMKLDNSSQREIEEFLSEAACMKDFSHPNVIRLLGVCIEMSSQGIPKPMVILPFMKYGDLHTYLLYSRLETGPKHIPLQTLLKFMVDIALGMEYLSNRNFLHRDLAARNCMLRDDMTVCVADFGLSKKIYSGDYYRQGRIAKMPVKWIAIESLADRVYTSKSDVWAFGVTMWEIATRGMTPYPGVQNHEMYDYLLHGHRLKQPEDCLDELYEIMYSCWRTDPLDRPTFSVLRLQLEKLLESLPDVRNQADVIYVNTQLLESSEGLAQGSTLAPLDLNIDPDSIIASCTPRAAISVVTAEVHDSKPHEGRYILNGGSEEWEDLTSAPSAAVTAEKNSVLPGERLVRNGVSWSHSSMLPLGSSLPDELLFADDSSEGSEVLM
UniProt Q9UM73, sequence (whole entry, looked up): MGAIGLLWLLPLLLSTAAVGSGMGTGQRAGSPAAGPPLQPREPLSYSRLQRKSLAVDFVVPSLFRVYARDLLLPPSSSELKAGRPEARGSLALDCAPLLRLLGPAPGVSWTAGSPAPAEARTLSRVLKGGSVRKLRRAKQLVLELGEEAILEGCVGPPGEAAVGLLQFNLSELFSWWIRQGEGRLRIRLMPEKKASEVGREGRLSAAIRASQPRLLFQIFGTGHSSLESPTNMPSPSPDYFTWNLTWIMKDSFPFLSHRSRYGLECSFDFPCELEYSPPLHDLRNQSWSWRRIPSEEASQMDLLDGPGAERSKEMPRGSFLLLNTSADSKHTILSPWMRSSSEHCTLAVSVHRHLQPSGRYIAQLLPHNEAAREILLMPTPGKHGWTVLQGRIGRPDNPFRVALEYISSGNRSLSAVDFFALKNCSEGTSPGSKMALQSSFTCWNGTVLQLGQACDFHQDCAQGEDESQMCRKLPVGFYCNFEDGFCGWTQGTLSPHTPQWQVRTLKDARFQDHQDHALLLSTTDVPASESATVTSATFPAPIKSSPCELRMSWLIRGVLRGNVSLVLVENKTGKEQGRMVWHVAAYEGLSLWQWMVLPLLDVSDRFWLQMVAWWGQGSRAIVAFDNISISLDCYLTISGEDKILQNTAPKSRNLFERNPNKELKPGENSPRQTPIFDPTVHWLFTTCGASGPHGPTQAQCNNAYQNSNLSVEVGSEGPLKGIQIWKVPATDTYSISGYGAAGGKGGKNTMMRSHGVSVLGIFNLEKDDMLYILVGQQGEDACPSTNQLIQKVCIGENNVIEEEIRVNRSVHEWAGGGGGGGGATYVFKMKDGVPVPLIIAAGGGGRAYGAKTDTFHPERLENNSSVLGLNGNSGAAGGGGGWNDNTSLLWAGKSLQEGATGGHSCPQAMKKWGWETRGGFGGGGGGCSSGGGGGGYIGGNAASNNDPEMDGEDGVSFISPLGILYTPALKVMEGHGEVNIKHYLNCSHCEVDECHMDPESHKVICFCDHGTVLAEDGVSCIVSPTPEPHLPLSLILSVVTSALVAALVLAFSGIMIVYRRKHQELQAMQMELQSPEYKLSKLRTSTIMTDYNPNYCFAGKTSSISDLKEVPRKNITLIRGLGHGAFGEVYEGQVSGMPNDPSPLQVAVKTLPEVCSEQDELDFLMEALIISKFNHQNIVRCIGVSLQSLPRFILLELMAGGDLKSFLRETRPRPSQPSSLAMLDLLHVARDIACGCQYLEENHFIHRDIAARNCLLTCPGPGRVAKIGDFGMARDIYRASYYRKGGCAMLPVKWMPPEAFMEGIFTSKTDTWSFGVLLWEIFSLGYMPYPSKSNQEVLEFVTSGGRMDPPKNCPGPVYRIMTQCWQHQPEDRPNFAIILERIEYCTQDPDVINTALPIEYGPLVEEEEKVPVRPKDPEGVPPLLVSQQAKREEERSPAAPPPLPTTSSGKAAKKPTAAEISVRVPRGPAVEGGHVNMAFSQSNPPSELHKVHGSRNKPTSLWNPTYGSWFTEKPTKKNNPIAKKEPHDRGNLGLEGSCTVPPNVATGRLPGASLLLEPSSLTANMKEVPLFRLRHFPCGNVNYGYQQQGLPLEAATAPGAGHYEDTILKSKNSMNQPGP
UniProt Q13523, sequence (whole entry, looked up): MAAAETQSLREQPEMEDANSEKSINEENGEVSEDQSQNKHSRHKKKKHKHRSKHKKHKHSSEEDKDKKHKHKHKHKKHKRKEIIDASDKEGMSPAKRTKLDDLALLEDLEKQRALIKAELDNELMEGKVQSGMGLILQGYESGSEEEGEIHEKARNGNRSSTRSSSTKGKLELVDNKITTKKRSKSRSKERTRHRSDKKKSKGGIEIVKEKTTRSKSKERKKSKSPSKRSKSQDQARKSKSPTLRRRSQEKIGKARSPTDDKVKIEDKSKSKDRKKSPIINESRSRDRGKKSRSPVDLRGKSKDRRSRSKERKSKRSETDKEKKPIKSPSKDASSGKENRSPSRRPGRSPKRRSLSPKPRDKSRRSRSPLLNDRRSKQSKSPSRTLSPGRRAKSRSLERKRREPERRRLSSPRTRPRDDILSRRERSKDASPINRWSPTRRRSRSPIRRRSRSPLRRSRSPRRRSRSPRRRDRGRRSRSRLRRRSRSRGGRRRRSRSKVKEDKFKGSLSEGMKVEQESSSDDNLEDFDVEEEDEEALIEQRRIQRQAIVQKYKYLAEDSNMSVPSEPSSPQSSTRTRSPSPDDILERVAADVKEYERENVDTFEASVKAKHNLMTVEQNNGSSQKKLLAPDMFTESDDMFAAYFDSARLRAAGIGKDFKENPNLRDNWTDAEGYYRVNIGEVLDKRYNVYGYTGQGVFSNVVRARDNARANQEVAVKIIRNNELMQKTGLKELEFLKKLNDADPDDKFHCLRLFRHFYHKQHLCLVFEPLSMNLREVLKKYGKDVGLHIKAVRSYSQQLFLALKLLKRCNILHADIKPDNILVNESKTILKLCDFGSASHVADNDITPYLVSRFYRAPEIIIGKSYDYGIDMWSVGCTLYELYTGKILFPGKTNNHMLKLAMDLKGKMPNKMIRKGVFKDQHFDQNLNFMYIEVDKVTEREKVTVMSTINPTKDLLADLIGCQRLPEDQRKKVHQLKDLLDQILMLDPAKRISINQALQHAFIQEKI
UniProt P11802, sequence (whole entry, looked up): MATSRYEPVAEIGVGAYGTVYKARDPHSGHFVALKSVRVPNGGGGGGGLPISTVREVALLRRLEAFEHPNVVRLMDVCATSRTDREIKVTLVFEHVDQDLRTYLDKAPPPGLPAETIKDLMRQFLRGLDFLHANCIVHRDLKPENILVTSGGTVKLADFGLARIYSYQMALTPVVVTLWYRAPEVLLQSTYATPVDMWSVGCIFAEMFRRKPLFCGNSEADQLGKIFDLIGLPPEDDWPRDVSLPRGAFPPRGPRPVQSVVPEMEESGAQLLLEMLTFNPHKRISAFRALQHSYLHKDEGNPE

Series 1 — technique: RNA Bind-n-Seq; molecule type: RNA; sample: in vitro; concentration: 200 nM; setting: whole 134-nt RNA, ends assumed; with: 150 mM KCl; baseline: input library; direction: higher = stronger binding; measurement: log2 enrichment
Target: Fragile X messenger ribonucleoprotein 1, C-terminal low-complexity region (Fmr1, Mus musculus, UniProt P35922)
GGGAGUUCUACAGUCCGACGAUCUCCUGUGCUACACAUCGUAUGUACCGAAUCGGGGUGGGGUUUUUUUGGGGAAAAAGGGGAAAGUAUUAUGUUACGCCGUUCGGAUCUGCAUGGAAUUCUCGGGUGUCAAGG: 0.792
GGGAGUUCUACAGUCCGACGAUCGCGGACCGAGAAAGUCGUUACGAGGAAGAAGAAGAACAAAGUCGAAGUAUGAGCCGGAAGAGGAAGGCAUCUGUGCACAGUUCGGGCCGUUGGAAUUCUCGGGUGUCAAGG: 0.469
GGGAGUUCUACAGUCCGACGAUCAAGUCCUGUGCUACACAUCGUAUGUACCGAAUCGGGUGGGAAAGGGAAAAAAAGGGAAAGUAUUAUGUUACGCCGUUCGGAUCUGCACUUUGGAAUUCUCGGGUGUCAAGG: 0.225
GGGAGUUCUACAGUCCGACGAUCCUCAAGUCCUGUGCUACACAUCGUAUGUACCGAAUCGGAAAGGAAAGGUUUGGAAAGUAUUAUGUUACGCCGUUCGGAUCUGCACUUCCAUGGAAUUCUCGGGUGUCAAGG: -0.628
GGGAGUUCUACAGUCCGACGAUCGUCCUGUGCUACACAUCGUAUGUACCGAAUCGGAAAAAAGGGGAAAAAAGGAAAAAAGGAAAGUAUUAUGUUACGCCGUUCGGAUCUGCAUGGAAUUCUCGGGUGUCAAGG: -0.565
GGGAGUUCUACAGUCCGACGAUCACCAUGCAGGUGGGCAUCUUUGGGAAGUGGGGCAAGGGGGGGAUAGGGAGGGGGGUAACACUAUGGGAACAGGUGGUCCCAGGUCGUUUCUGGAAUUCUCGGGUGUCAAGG: 0.64
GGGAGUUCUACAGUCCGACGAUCGCAGGAAGUAAAAACAAAUGGAAAUGCUUCGGAUAGUUGCAGGGGUGGGGGUUGCUAAGGAAAGGGUGGGAUGGGAGUGGGUAAAGAGUUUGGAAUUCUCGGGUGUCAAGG: 0.0943
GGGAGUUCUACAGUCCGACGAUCUUGUGGAAAGGAGGAGAACCCCUGCUGAAAUUCGAGAGGAGUUUGAGCGGCUGCAGAGAGAGAGAGAAGAGAGGAGAUUGCAGCAGCGAAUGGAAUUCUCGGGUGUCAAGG: -1.14

Series 2 — concentration: 1 µM; measurement: remaining binding
SMILES: O=C1NC(c2ccccn2)Sc2ccccc21 (stereo not shown)
Tyrosine-protein kinase ABL1, phosphorylated (ABL1, Homo sapiens, UniProt P00519, F317I); binding: 88%
CSNK1G1 (Homo sapiens, UniProt Q9HCP0); cell-free assay, competition with immobilised ligand: 90%
LIM domain kinase 1 (LIMK1, Homo sapiens, UniProt P53667); cell-free assay, competition with immobilised ligand: 78%
ACVR2B (Homo sapiens, UniProt Q13705); cell-free assay, competition with immobilised ligand: 100%
PRPF4B (Homo sapiens, UniProt Q13523); cell-free assay, competition with immobilised ligand: 78%
CDK11B (Homo sapiens, UniProt P21127); cell-free assay, competition with immobilised ligand: 100%
DAPK1 (Homo sapiens, UniProt P53355); cell-free assay, competition with immobilised ligand: 100%
FES (Homo sapiens, UniProt P07332); cell-free assay, competition with immobilised ligand: 94%
BMPR1A (Homo sapiens, UniProt P36894); binding, competition with immobilised ligand: 100%
PIK3CB (Homo sapiens, UniProt P42338); cell-free assay, competition with immobilised ligand: 100%
CDK4 (Homo sapiens, UniProt P11802); cell-free assay, competition with immobilised ligand: 93%
MERTK (Homo sapiens, UniProt Q12866); cell-free assay, competition with immobilised ligand: 75%
ALK (Homo sapiens, UniProt Q9UM73); cell-free assay, competition with immobilised ligand: 89%
MATK (Homo sapiens, UniProt P42679); cell-free assay, competition with immobilised ligand: 100%
STK35 (Homo sapiens, UniProt Q8TDR2); cell-free assay, competition with immobilised ligand: 99%

Series 3 — observed: enzyme activity; mode: inhibitor; concentration: 0.5 µM; baseline: control; measurement: remaining activity
Target: Mitogen-activated protein kinase kinase kinase kinase 2 (MAP4K2, Homo sapiens, UniProt Q12851)
UniProt Q12851, sequence (whole entry, looked up): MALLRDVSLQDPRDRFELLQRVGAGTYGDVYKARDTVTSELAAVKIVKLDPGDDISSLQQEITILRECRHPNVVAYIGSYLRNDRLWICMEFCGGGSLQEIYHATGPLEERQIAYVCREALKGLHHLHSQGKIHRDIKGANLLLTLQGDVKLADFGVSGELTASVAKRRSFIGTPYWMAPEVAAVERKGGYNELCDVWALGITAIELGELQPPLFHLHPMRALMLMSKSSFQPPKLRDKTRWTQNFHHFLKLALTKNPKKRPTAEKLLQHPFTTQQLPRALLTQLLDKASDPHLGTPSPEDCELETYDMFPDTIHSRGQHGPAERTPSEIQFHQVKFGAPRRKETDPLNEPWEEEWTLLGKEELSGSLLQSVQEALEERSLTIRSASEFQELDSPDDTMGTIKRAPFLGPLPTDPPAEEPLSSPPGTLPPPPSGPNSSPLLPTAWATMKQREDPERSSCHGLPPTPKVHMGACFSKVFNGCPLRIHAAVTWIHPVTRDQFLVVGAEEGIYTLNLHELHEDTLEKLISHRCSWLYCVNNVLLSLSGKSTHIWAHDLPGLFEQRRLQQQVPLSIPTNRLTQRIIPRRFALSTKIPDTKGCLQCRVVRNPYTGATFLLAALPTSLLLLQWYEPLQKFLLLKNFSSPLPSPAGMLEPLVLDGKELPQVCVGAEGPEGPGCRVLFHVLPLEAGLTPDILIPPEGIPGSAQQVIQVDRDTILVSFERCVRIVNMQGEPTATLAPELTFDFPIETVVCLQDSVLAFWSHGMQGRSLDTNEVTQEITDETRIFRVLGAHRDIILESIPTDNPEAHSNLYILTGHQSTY
COc1cc2nccc(Oc3ccc(NC(=S)NC(=O)c4ccccc4C)cc3)c2cc1OC: 92.9%
CO[C@H]1C[C@@H]2CC[C@@H](C)[C@@](O)(O2)C(=O)C(=O)N2CCCC[C@H]2C(=O)O[C@H]([C@H](C)C[C@@H]2CC[C@@H](O)[C@H](OC)C2)CC(=O)[C@H](C)/C=C(\C)[C@@H](O)[C@@H](OC)C(=O)[C@H](C)C[C@H](C)/C=C/C=C/C=C/1C: 111%
Nc1[nH]nc2nc3ccccc3nc12: 91.7%
Cc1nc(-c2ccccc2)c(-c2ccncc2)o1: 106%
O=C1NC(=O)C(c2cn(CCCn3ccnc3)c3ccccc23)=C1Nc1ccccc1: 85.7%
Cc1cccc(-c2[nH]c(C(C)(C)C)nc2-c2ccc3c(c2)OCO3)n1: 102%
Nc1ccc2ncnc(NCCc3ccc(Oc4ccccc4)cc3)c2c1: 100%
COc1cc2ncnc(Nc3ccc(Oc4ccccc4)cc3)c2cc1OC: 104%
O=c1c2ccccc2[nH]c(=S)n1CCN1CCC(=C(c2ccc(F)cc2)c2ccc(F)cc2)CC1: 112%
Oc1ccc(-c2nc(-c3ccncc3)c(-c3ccc(F)cc3)[nH]2)cc1: 101%
CCOC(=O)c1c(C)[nH]c(/C=C2\C(=O)Nc3ccccc32)c1C: 95.5%
O=S(=O)(c1cccc2cnccc12)N1CCCNCC1: 45.7%
N#CC(C#N)=C(N)/C(C#N)=C/c1ccc(O)cc1: 100%
NCCNc1ncc(C(N)=O)c(Nc2cccc(C(F)(F)F)c2)n1: 29.8%
COc1ccc(CNC(=O)Nc2ncc([N+](=O)[O-])s2)cc1: 113%

Series 4 — technique: RNAcompete; molecule type: RNA; sample: in vitro; concentration: 20 nM; setting: 7-mer, probes averaged, single round; baseline: mean of 7-mers; direction: higher = stronger binding; measurement: 7-mer Z-score
Target: PABPC1L2, full length, GST fusion (mouse, UniProt A0ABA7IW68)
Residues (chain): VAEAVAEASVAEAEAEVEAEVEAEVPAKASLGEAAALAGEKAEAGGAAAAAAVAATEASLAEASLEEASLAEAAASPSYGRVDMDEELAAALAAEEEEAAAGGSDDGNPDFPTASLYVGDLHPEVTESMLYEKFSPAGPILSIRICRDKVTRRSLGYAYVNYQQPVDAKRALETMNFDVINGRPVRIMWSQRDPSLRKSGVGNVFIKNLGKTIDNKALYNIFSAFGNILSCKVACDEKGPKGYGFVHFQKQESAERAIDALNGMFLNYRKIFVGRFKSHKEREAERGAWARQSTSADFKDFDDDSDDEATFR
CUAGGAU: -0.0663
GUAUGCA: -0.191
GCCAGGG: 0.151
GGAUCGA: 0.204
GCUGCUC: -0.24
GUACUAA: -0.0138
GACGCCG: -0.219
UUGUAGA: -0.238

Some of these lines once more (series 3):
N#CC(C#N)=C(N)/C(C#N)=C/c1ccc(O)cc1: 100%
Oc1ccc(-c2nc(-c3ccncc3)c(-c3ccc(F)cc3)[nH]2)cc1: 101%
Nc1ccc2ncnc(NCCc3ccc(Oc4ccccc4)cc3)c2c1: 100%
CCOC(=O)c1c(C)[nH]c(/C=C2\C(=O)Nc3ccccc32)c1C: 95.5%
